Measurements collected from several papers.
Protocols differ between the studies behind these lines. “And” joins repeats or separate records; there may be more than shown. ± gives the spread as reported.
ISOC2: Isochorismatase domain-containing protein 2 (ISOC2, Homo sapiens, UniProt Q96AB3)
Sequence of UniProt Q96AB3 (whole entry, looked up): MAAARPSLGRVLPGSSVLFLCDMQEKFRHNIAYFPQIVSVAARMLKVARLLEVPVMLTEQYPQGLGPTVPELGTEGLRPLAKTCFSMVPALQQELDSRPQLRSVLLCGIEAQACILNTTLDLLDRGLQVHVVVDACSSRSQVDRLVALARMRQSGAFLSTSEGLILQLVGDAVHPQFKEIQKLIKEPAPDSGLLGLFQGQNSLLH
Sequence of UniProt Q16774 (whole entry, looked up): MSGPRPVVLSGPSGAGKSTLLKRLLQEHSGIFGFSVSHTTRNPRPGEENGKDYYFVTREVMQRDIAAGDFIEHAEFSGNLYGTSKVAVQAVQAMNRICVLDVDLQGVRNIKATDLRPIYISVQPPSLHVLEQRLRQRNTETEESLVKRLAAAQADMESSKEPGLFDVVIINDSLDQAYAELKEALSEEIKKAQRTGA
Sequence of UniProt P0AGE0 (whole entry, looked up): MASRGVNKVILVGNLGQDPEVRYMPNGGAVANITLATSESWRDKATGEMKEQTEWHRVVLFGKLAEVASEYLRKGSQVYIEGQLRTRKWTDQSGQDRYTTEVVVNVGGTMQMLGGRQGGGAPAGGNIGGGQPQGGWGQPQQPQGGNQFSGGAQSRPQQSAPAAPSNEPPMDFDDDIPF
Sequence of UniProt A8K8P3 (whole entry, looked up): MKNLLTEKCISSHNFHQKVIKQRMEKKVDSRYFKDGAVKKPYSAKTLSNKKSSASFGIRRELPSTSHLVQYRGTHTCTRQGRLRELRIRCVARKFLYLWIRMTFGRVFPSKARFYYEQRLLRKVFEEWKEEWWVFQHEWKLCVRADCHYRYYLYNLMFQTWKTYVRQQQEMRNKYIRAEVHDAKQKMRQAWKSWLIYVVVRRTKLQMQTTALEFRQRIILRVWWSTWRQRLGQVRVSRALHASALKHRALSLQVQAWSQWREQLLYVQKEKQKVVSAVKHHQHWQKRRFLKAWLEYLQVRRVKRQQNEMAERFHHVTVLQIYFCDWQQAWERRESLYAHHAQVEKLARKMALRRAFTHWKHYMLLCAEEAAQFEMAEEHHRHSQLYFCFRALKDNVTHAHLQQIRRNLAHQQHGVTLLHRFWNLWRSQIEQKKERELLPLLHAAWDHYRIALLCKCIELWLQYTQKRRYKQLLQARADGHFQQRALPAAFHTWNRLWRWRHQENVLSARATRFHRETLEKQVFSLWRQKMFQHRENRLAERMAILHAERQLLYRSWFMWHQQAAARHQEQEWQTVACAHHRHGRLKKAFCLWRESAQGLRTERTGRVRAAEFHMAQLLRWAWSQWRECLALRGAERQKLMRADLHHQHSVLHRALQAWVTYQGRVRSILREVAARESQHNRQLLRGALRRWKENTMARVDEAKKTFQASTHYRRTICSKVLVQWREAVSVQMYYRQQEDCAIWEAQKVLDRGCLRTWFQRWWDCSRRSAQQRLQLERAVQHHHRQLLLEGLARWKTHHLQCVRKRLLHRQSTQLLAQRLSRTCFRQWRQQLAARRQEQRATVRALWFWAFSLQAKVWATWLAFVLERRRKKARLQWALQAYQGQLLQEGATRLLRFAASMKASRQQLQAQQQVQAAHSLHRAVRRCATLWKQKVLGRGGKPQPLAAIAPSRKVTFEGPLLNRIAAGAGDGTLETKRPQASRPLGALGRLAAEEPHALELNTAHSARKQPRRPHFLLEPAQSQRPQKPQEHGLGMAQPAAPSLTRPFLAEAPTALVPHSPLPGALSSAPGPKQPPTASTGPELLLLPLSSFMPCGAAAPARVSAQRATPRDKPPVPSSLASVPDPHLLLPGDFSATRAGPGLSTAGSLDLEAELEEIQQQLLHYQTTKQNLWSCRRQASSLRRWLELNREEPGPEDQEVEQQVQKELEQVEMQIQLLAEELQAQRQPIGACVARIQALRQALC
Sequence of UniProt O60760 (whole entry, looked up): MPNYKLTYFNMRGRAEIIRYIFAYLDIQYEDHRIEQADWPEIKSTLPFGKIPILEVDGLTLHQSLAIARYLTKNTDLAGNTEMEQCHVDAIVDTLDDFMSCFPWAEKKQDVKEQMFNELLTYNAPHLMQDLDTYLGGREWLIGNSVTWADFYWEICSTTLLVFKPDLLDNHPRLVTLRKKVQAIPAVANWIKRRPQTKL

CCCCCCCC/C=C\CCCCCCCC(=O)OC[C@H](COP(=O)(O)OCC(O)CO)OC(=O)CCCCCCC/C=C\CCCCCCCC (mixture of isomers)
Kd (Single-stranded DNA-binding protein (ssb, Escherichia coli, UniProt P0AGE0); binding, tryptophan fluorescence quenching; Escherichia coli, 100% in DOPG liposomes; 37 °C): 780 ± 250 nM

COc1cc2c3c(n(CCCNCCO)c(=O)c2cc1OC)-c1nc2c(cc1C3=O)OCO2
Kd (MYC G-quadruplex DNA; binding, fluorescence; pH 7.0, 20 °C, added: K+ 100 mM): 97 nM

N#Cc1c(N)sc2c1CCCC2
Kd (GTPase KRas (KRAS, Homo sapiens, UniProt P01116, G12V/S39C); HSQC NMR titration): 101000 nM and 106000 nM

CC[C@H](CC[C@@H](C)[C@H]1CC[C@H]2[C@@H]3CCC4=CC(=O)CC[C@]4(C)[C@H]3CC[C@]12C)C(C)C
Kd (CYP125 ancestral reconstruction; UV-Vis difference spectra; Morrison fit, fitted enzyme): 100 ± 90 nM

COc1ccc(-c2nc(N3CCOCC3)c3sc(CN(C)c4ncc(C(=O)NO)cn4)cc3n2)cn1
Kd (ISOC2; inhibitor, competition pulldown; SW620 and MV4-11 lysate; 1 h): > 30200 nM

CC[C@H](/C=C/[C@@H](C)[C@H]1CC[C@H]2[C@@H]3CC=C4C[C@@H](O)CC[C@]4(C)[C@H]3CC[C@]12C)C(C)C
Kd (CYP125 ancestral reconstruction; UV-Vis difference spectra; Michaelis-Menten fit): 1500 ± 700 nM

Nc1cc(F)ccc1NC(=O)c1ccc(CNC(=O)/C=C/c2cccnc2)cc1
Kd (ISOC2; inhibitor, competition pulldown; SW620 and MV4-11 lysate; 1 h): > 30200 nM

CC1=C(C)C(=O)c2ccccc2C1=O
Kd (Reaction center protein M chain, QA site (pufM, Cereibacter sphaeroides, UniProt P0C0Y9); QA site binding): < 200 nM

Nc1ncnc2c1ncn2[C@@H]1O[C@H](COP(=O)(O)OP(=O)(O)OC[C@H]2OC(O)[C@H](O)[C@@H]2O)[C@@H](O)[C@H]1O (stereo partly drawn)
Kd (Protein SFI1 homolog (SFI1, Homo sapiens, UniProt A8K8P3)): 1910 nM

Nc1ncnc2c1ncn2[C@@H]1O[C@@H]2COP(=O)(O)O[C@H]3[C@@H](O)[C@H](n4cnc5c(N)ncnc54)O[C@@H]3COP(=O)(O)O[C@H]3[C@@H](O)[C@H](n4cnc5c(N)ncnc54)O[C@@H]3COP(=O)(O)O[C@H]3[C@@H](O)[C@H](n4cnc5c(N)ncnc54)O[C@@H]3COP(=O)(O)O[C@H]2[C@H]1O
Kd (Csx1–Crn2^1–444): ~1600 nM

O=C(CCCCCN1C(=O)c2cccc3cccc(c23)C1=O)NO
Kd (ISOC2; inhibitor, competition pulldown; SW620 and MV4-11 lysate; 1 h): 40.5 nM

Nc1ncnc2c1ncn2[C@@H]1O[C@H](COP(=O)(O)OP(=O)(O)O)[C@@H](O)[C@H]1O
Kd (GUK1 (Homo sapiens, UniProt Q16774); ITC; added: ATPγS 1 mM): 14200 nM and 10200 nM and 10100 nM

COc1ccc2c(c1OC)CN1CCc3cc4c(cc3C1=C2)OCO4
Kd (HPGDS (Homo sapiens, UniProt O60760); binding, localised surface plasmon resonance; immobilised target): 3200 ± 740 nM

CC(C)[C@H](C)CC[C@@H](C)[C@H]1CC[C@H]2[C@@H]3CC=C4C[C@@H](O)CC[C@]4(C)[C@H]3CC[C@]12C
Kd (CYP125 ancestral reconstruction; UV-Vis difference spectra; Morrison fit, fixed enzyme): 2300 ± 1200 nM

CCCCc1nc2cc(/C=C/C(=O)NO)ccc2n1CCN(CC)CC
Kd (ISOC2; inhibitor, competition pulldown; SW620 and MV4-11 lysate; 1 h): > 30200 nM

Nc1nc(-c2ccc(Cl)c(S(N)(=O)=O)c2)cs1
Kd (CA2 (Homo sapiens, UniProt P00918); binding, thermal shift; pH 7.0, 25 °C): 290 nM

Cc1[nH]c2ccccc2c1CCNCc1ccc(/C=C/C(=O)NO)cc1
Kd (ISOC2; inhibitor, competition pulldown; SW620 and MV4-11 lysate; 1 h): > 30200 nM

COc1cc2c3c(n(CCCn4ccnc4)c(=O)c2cc1OC)-c1nc2c(cc1C3=O)OCO2
Kd (MYC G-quadruplex DNA; binding, fluorescence; pH 7.0, 20 °C, added: K+ 100 mM): 147 nM

Excerpt of the above:
CC(C)[C@H](C)CC[C@@H](C)[C@H]1CC[C@H]2[C@@H]3CC=C4C[C@@H](O)CC[C@]4(C)[C@H]3CC[C@]12C
Kd (CYP125 ancestral reconstruction; UV-Vis difference spectra; Morrison fit, fixed enzyme): 2300 ± 1200 nM

CCCCCCCC/C=C\CCCCCCCC(=O)OC[C@H](COP(=O)(O)OCC(O)CO)OC(=O)CCCCCCC/C=C\CCCCCCCC (mixture of isomers)
Kd (Single-stranded DNA-binding protein (ssb, Escherichia coli, UniProt P0AGE0); binding, tryptophan fluorescence quenching; Escherichia coli, 100% in DOPG liposomes; 37 °C): 780 ± 250 nM
